Experimental data pooled from the literature.
Parts stem from different laboratories: compare values within a part only.
UniProt Q15375, sequence (whole entry, looked up): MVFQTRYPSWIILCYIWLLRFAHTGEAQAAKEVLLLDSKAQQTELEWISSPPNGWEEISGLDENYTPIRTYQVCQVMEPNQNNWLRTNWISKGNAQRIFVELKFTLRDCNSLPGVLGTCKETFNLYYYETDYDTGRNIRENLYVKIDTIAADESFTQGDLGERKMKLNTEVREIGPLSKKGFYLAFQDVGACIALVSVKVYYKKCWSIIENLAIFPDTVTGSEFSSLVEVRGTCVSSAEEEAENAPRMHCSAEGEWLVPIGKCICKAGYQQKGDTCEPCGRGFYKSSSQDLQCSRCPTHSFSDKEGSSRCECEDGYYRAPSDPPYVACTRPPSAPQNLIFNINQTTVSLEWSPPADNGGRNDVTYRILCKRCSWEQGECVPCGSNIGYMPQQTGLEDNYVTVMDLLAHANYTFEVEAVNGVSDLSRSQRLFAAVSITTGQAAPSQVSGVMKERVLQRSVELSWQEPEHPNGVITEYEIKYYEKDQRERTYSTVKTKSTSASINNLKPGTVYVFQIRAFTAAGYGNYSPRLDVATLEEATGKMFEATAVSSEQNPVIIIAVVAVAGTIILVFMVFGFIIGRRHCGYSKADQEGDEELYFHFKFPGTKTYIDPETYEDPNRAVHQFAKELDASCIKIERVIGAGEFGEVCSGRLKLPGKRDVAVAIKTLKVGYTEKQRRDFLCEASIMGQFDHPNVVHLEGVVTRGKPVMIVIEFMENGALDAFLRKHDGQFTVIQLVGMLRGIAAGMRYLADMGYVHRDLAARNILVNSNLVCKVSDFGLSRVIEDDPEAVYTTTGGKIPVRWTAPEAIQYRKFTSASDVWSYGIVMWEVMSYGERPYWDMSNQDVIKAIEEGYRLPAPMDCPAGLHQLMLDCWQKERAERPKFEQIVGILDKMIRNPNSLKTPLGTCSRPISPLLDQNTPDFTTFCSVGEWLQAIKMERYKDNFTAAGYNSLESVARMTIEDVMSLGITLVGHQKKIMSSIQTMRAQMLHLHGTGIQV
UniProt Q6P3R8, sequence (whole entry, looked up): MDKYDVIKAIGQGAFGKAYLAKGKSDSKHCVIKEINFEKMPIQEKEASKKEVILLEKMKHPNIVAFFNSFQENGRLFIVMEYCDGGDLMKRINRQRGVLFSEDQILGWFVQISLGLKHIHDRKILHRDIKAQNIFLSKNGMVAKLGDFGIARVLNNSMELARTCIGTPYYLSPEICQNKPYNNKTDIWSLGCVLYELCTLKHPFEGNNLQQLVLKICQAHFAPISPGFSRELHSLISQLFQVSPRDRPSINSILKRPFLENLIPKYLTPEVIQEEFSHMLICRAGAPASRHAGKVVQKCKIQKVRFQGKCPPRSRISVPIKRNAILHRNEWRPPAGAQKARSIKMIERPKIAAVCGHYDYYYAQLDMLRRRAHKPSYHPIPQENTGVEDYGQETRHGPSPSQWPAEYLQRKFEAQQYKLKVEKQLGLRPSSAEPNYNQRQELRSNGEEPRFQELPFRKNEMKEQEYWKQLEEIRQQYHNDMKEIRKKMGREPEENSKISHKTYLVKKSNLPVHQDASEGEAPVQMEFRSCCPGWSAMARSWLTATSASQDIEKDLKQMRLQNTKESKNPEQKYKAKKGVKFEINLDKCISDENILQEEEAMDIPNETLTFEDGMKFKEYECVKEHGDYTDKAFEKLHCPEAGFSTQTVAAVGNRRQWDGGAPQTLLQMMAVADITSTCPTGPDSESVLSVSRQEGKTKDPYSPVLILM
UniProt P36896, sequence (whole entry, looked up): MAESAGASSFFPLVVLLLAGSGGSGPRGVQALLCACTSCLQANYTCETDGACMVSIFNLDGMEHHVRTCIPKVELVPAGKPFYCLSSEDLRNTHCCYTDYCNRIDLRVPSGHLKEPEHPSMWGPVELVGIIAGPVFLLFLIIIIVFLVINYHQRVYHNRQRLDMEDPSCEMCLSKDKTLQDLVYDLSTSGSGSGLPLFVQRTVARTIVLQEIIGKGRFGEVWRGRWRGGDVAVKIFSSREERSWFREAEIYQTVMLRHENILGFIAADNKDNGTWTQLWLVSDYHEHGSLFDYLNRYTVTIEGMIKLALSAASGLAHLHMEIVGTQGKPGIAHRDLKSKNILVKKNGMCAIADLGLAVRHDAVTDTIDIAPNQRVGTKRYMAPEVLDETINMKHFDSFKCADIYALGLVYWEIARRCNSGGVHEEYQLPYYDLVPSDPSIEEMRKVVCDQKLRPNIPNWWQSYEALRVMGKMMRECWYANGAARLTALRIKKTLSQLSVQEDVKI
UniProt Q15349, sequence (whole entry, looked up): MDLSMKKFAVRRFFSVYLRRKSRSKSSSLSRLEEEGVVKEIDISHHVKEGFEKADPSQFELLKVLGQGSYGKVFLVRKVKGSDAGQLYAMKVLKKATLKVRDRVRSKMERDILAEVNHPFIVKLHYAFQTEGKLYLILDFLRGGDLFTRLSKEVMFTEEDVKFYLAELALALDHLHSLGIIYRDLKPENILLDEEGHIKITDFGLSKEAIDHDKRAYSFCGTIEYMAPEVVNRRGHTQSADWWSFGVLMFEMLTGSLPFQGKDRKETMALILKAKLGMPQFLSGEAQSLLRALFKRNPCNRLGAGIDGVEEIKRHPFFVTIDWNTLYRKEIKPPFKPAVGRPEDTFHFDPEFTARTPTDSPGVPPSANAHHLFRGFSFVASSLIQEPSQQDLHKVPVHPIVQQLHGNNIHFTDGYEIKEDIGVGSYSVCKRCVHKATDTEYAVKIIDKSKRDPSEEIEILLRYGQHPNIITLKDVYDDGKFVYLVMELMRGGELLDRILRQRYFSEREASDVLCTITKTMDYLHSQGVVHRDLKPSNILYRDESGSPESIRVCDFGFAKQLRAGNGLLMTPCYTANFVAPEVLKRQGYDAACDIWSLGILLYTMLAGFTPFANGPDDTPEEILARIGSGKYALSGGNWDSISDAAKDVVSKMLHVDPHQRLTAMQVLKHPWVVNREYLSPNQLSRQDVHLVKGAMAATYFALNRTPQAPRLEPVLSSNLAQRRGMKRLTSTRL
UniProt Q86YV6, sequence (whole entry, looked up): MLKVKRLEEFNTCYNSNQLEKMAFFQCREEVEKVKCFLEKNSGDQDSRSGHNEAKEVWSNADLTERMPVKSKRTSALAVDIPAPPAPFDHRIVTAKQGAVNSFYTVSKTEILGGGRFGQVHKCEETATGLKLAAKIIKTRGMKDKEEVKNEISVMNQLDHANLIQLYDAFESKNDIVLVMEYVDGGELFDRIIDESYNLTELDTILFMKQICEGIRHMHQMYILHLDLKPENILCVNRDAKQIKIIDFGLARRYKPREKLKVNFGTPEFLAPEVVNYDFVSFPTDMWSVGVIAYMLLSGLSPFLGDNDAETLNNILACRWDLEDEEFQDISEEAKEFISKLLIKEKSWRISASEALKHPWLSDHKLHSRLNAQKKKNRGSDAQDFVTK
UniProt P33981, sequence (whole entry, looked up): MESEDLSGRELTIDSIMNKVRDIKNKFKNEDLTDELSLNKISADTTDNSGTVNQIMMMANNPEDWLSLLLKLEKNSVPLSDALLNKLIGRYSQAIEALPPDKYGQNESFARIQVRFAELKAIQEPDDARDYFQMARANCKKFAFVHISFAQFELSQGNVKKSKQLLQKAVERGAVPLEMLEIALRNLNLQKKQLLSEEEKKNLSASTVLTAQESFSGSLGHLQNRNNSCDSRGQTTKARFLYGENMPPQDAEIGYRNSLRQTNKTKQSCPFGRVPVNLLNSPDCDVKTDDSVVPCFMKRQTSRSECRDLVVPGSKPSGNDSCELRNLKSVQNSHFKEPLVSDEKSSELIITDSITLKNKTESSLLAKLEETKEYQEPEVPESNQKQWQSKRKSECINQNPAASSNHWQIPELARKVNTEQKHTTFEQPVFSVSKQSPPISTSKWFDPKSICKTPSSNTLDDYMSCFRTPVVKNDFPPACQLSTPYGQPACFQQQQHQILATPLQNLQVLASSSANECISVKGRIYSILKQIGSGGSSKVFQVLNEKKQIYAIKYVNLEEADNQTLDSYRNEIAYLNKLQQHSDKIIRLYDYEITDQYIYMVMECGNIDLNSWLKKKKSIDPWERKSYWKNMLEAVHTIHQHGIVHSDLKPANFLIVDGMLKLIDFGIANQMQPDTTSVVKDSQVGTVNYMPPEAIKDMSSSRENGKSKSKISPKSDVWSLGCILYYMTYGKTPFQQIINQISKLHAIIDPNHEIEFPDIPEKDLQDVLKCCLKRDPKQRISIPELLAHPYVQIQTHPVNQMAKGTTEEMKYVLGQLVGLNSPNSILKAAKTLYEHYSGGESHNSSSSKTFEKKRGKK

Study 1 — method: competition protein-binding microarray; form: double-stranded DNA, one strand shown; matrix: in vitro; tested at: 2 µM; added: Pho4 competitor, 0.05 µM; reading: higher = stronger binding
Target: Centromere-binding protein 1, full length, His-tagged (CBF1, Saccharomyces cerevisiae, UniProt P17106, residues 1-351)
UniProt P17106, sequence (whole entry, looked up): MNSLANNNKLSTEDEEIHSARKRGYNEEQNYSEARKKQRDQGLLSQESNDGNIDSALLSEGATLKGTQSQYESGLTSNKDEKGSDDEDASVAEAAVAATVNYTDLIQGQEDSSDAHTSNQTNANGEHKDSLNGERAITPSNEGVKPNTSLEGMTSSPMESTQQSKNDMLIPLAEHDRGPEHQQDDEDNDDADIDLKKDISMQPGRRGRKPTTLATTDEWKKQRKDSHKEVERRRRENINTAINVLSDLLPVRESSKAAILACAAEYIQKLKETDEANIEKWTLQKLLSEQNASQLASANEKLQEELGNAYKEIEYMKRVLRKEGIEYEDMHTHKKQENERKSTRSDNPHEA
Setting: whole 60-bp probe, lowest competitor level
`ATGTACAGTGGTACCCTCGTGTCCTCTGCAGCGAGAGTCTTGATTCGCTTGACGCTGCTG` has a fluorescence intensity of 88.8 a.u.
`TTCATGGTTCTTTCACACGTGAGCCTTCCTCGGAGGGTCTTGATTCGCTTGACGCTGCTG` has a fluorescence intensity of 1050 a.u.
The fluorescence intensity of `TAGTGGAAGGATGTACTCGTGATGGGGTTATGGTAGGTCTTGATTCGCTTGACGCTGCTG` is reported as 276 a.u.
The fluorescence intensity of `CTTTCCCGATCTTGGCGGGTGGGTGTAGCACATTTGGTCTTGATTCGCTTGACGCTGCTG` is reported as 57.2 a.u.
`GATTGACCAATTCGGCACGTGTATATTTCGTTGACCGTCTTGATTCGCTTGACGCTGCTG` gave a fluorescence intensity of 1870 a.u.
`GTCGGTTTCATCTTCTCCGTGATGGCTTTGCATCTAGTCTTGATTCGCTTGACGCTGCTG` gave a fluorescence intensity of 78.6 a.u.
`AAACGGTCTTGGCATCAGGTGCAGTTGCCGTTTGTGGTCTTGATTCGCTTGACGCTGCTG` gave a fluorescence intensity of 88.3 a.u.
`TTTCAAAGCTGCCTCCACGTGGAACTTTTATTTCATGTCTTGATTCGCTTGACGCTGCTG` has a fluorescence intensity of 575 a.u.

Study 2 — observed: cell-free assay; method: competition with immobilised ligand; tested at: 1 µM
Structure (SMILES): C[C@@]1(Cc2ccc(C#N)cc2)C(=O)N(c2cc(Cl)cc(Cl)c2)c2ncc(C(=O)NC3(c4nc(C5CCC5)no4)CC3)n21
It gave 100% for remaining binding (Myotonin-protein kinase (DMPK, Homo sapiens, UniProt Q09013)).
The remaining binding was 100% (Ribosomal protein S6 kinase alpha-2, N-terminal kinase domain (RPS6KA2, Homo sapiens, UniProt Q15349)).
The remaining binding was 100% (Glycogen synthase kinase-3 beta (GSK3B, Homo sapiens, UniProt P49841)).
It gave 100% for remaining binding (Epidermal growth factor receptor (EGFR, Homo sapiens, UniProt P00533, L858R)).
It gave 86% for remaining binding (Epidermal growth factor receptor (EGFR, Homo sapiens, UniProt P00533, T790M)).
It gave 100% for remaining binding (Serine/threonine-protein kinase SIK2 (SIK2, Homo sapiens, UniProt Q9H0K1)).
It gave 100% for remaining binding (Serine/threonine-protein kinase 16 (STK16, Homo sapiens, UniProt O75716)).
Dual specificity protein kinase TTK (TTK, Homo sapiens, UniProt P33981) — remaining binding: 94%.
For Activin receptor type-1B (ACVR1B, Homo sapiens, UniProt P36896): remaining binding read 100%.
It gave 100% for remaining binding (Serine/threonine-protein kinase Nek5 (NEK5, Homo sapiens, UniProt Q6P3R8)).
The remaining binding was 92% (Ephrin type-A receptor 7 (EPHA7, Homo sapiens, UniProt Q15375)).
For Serine/threonine-protein kinase SBK1 (SBK1, Homo sapiens, UniProt Q52WX2): remaining binding read 95%.
The remaining binding was 100% (Myosin light chain kinase family member 4 (MYLK4, Homo sapiens, UniProt Q86YV6)).

Study 3 — method: RNA Bind-n-Seq; form: RNA; matrix: in vitro; tested at: not given; setting: 4-mer, random 30-nt RNA, single round; added: RocA, ADP, phosphate; baseline: input library; reading: higher = stronger binding
Target: ATP-dependent RNA helicase DDX3X, helicase core (DDX3X, Homo sapiens, UniProt O00571, residues 132-607)
UniProt O00571, sequence (132-607, looked up): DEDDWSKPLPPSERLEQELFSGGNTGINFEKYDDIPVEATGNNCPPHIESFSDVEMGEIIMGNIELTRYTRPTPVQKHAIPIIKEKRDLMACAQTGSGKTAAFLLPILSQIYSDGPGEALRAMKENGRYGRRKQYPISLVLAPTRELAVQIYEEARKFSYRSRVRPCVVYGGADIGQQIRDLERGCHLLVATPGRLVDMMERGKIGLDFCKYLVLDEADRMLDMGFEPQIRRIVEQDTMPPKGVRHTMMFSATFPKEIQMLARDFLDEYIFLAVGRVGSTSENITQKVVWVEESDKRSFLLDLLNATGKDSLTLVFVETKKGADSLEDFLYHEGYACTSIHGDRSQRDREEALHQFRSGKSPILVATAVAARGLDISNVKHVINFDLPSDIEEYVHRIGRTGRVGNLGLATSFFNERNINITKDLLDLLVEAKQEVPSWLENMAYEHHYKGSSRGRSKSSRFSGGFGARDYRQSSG
The 4-mer enrichment of `GGAA` is reported as 1.68 fold.
`CUCU` has a 4-mer enrichment of 0.622 fold.
The 4-mer enrichment of `GCUC` is reported as 0.605 fold.
`AGCA` gave a 4-mer enrichment of 0.954 fold.
The 4-mer enrichment of `GUUC` is reported as 0.808 fold.
The 4-mer enrichment of `AACU` is reported as 0.728 fold.
`UCCU` gave a 4-mer enrichment of 0.762 fold.
`UGGA` has a 4-mer enrichment of 1.27 fold.

Study 4 — observed: enzyme activity; mode: inhibitor; tested at: 0.5 µM; baseline: control
Target: STE20/SPS1-related proline-alanine-rich protein kinase (STK39, Homo sapiens, UniProt Q9UEW8)
With c1ccc(-c2[nH]ncc2-c2ccnc3ccccc23)nc1 the remaining activity was 88.7%.
For O=C1C(Cl)=C(N2C(=O)CCC2=O)C(=O)c2ccccc21, the remaining activity was 97.3%.
Cc1nc2cc3nc(-c4cccs4)cnc3cc2n1C gave a remaining activity of 79.8%.
The remaining activity of c1ccc(-c2cnc(Nc3ccc(OCCN4CCCC4)cc3)s2)cc1 is reported as 75.4%.
For CN(C)C[C@H]1CCn2c(c(C3=C(c4cn(C)c5ccccc45)C(=O)NC3=O)c3ccccc32)C1, the remaining activity was 102%.
C[C@@H]1CCN(C(=O)CC#N)C[C@@H]1N(C)c1ncnc2[nH]ccc12 gave a remaining activity of 95.1%.
Nc1cccc(-c2cc3c(Oc4cccc(O)c4)ncnc3[nH]2)c1 gave a remaining activity of 119%.
For COc1cc2ncnc(Nc3ccc(O)c(Br)c3)c2cc1OC, the remaining activity was 87.4%.
With O=C1c2ccccc2-c2n[nH]c3cccc1c23 the remaining activity was 82.8%.
COc1cc2ncnc(Nc3cccc(Cl)c3)c2cc1OC gave a remaining activity of 97%.
The remaining activity of Cc1cc2ncc(-c3ccccc3)nc2cc1C is reported as 103%.
With O=c1cc(-c2cccc3c2Sc2ccccc2S3)oc(N2CCOCC2)c1 the remaining activity was 84%.

For quick reference, copied from above (study 1):
The fluorescence intensity of `TAGTGGAAGGATGTACTCGTGATGGGGTTATGGTAGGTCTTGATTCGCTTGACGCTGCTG` is reported as 276 a.u.
The fluorescence intensity of `CTTTCCCGATCTTGGCGGGTGGGTGTAGCACATTTGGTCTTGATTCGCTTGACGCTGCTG` is reported as 57.2 a.u.
`GATTGACCAATTCGGCACGTGTATATTTCGTTGACCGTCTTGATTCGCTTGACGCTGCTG` gave a fluorescence intensity of 1870 a.u.
`GTCGGTTTCATCTTCTCCGTGATGGCTTTGCATCTAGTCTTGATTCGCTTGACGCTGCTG` gave a fluorescence intensity of 78.6 a.u.
